Results from different studies.
Each numbered part is a random draw from the data of one study; scales do not carry over between parts.

Sample 1
Target: Sal-like protein 4, full length isoform A (SALL4, Homo sapiens, UniProt Q9UJQ4, residues 1-1053)
UniProt Q9UJQ4, sequence (whole entry, looked up): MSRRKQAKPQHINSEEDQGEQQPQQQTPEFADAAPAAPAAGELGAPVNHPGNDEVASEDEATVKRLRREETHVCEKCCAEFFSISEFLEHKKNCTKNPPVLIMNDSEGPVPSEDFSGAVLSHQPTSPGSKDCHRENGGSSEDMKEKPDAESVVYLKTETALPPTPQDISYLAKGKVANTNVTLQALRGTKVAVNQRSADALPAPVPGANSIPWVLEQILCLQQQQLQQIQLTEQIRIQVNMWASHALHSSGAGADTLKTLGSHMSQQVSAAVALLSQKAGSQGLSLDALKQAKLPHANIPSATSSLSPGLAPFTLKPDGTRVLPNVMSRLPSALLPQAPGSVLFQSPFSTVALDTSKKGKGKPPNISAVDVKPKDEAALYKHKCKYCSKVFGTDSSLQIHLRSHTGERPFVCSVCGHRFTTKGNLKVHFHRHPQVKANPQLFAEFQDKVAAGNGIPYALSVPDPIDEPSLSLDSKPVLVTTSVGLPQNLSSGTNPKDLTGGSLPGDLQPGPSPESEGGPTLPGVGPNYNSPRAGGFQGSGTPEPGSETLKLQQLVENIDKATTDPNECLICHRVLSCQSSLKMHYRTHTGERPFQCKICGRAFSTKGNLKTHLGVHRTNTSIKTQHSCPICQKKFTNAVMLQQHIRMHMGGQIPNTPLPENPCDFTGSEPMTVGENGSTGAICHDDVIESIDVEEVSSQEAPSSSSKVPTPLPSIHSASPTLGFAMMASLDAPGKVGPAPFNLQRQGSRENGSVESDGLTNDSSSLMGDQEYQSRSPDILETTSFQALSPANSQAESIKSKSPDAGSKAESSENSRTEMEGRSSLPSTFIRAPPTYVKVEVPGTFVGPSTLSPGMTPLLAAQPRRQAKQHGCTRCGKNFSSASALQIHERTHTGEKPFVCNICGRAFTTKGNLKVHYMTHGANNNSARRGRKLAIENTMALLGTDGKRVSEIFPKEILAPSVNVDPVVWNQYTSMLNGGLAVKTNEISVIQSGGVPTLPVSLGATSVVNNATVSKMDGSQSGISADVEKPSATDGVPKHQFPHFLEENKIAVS
Method: universal PBM
Form: double-stranded DNA, one strand shown
Medium: in vitro
Tested at: 600 nM
Notes: 8-mer, flanks averaged, mean of replicates
Reading: higher = stronger binding
Endpoint: E-score
Sequence = GGATGAGA; result = -0.0394
Sequence = GGCAACTA; result = 0.0115
Sequence = GGAGGACC; result = -0.363
Sequence = GCGTCAAC; result = -0.239
Sequence = CCGCCCAG; result = -0.314
Sequence = CCTAGCAG; result = -0.159
Sequence = AGAGATTG; result = 0.12
Sequence = GAAGGAGC; result = -0.198
Sequence = CGCCTTTC; result = -0.0981
Sequence = ACCGGTTC; result = -0.19
Sequence = GAGGGGCC; result = -0.412
Sequence = AATACACT; result = 0.323
Sequence = CCTCGTAA; result = 0.0356
Sequence = AGATGATG; result = 0.151
Sequence = AGTGAGTC; result = -0.164
Sequence = CAGATCGC; result = -0.188
Sequence = GCCCAAAC; result = -0.189
Sequence = ACGATGGC; result = -0.0345
Sequence = TACTAATA; result = 0.317
Sequence = AAGTCAGT; result = 0.117
Sequence = AACTGGAT; result = 0.0794
Sequence = CTGAAGTA; result = 0.124
Sequence = GTTCTTAA; result = 0.0989
Sequence = CTGTGAAC; result = -0.00634
Sequence = AATCCGGC; result = -0.31

Sample 2
Target: Ras GTPase-activating protein-binding protein 1, full length (G3BP1, Homo sapiens, UniProt Q13283)
UniProt Q13283, sequence (whole entry, looked up): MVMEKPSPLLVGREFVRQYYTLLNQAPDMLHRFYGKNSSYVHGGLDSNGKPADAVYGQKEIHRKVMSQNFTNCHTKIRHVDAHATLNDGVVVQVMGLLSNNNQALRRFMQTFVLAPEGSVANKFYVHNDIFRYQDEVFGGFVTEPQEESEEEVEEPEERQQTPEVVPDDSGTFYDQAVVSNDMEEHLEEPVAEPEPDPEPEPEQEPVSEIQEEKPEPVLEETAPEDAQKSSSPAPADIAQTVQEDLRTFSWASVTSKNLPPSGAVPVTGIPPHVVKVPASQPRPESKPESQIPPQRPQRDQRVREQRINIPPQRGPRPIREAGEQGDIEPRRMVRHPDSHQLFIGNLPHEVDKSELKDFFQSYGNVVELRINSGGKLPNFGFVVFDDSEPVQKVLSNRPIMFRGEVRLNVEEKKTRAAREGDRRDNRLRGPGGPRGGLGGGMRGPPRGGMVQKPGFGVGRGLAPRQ
Method: RNA Bind-n-Seq
Form: RNA
Medium: in vitro
Tested at: 200 nM
Notes: whole 134-nt RNA, ends assumed
Together with: 150 mM KCl
Reference: input library
Reading: higher = stronger binding
Endpoint: log2 enrichment
Sequence = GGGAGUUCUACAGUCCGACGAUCCAAGUCCUGUGCUACACAUCGUAUGUACCGAAUCGGGGAGGGGUGGGGAAAGGGGAAAGUAUUAUGUUACGCCGUUCGGAUCUGCACUUCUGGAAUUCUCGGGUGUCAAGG; result = 1.48
Sequence = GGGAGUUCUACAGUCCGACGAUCCUGUGCUACACAUCGUAUGUACCGAAUCGGGGUUUGGGGUUUUUUUGGGGUUUUUUUGGGGAAAGUAUUAUGUUACGCCGUUCGGAUCUGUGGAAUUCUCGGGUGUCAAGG; result = -0.265
Sequence = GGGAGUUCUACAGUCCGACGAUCGAAAUUUGGUUAUGUGGAUUUUGAAUCUGCUGAAGACCUGGAGAAAGCGUUGGAACUCACUGGUUUGAAAGUCUUUGGCAAUGAAAUUAAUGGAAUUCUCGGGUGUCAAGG; result = -2.13
Sequence = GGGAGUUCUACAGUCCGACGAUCUGGCAUGGAUCCAGUGGGCUGAGACCACCCUCAUUCAGCGGGAUCAGGAGCCAAUCCCGCAGAACAUUGACCGAGUUAAAGCCCUUAUCGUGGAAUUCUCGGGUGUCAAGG; result = -0.999
Sequence = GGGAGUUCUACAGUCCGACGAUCAAGUCCUGUGCUACACAUCGUAUGUACCGAAUCGGGAAAGGGAGGGUUUUUUUGGGAAAGUAUUAUGUUACGCCGUUCGGAUCUGCACUUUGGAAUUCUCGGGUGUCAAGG; result = 0.235
Sequence = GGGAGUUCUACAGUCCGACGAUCACCAUGCAGGUGGGCAUGUUUGGGAAGUGGGGCAAGGGGGGGAUAGGGAGGGGGGUAACACUUUGGGAACAGGUGGUCCCAGGUCGUUUCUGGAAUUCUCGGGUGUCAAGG; result = 1.05
Sequence = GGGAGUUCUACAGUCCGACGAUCAGUCCUGUGCUACACAUCGUAUGUACCGAAUCGGGGCCCCGGGCCCCGGGGCCCCGGGAAAGUAUUAUGUUACGCCGUUCGGAUCUGCACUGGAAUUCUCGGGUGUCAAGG; result = -0.629
Sequence = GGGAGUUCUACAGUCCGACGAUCCUGUGCUACACAUCGUAUGUACCGAAUCGGGGAAAAAGGGGAAAAAGGGGUUUUUUUGGGGAAAGUAUUAUGUUACGCCGUUCGGAUCUGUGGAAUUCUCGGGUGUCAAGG; result = 0.132
Sequence = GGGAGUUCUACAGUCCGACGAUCACCAUGCAGGUGGGCAUCUUUGGGAAGUGGGGCAAGGGGGGGAUAGGGAGGGGGGUAACACGUUGGGAACAGGUGGUCCCAGGUCGUUUCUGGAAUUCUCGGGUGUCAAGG; result = 1.46

Sample 3
Target: Histone acetyltransferase KAT6A, both winged helices, GST fusion (KAT6A, Homo sapiens, UniProt Q92794, residues 1-181)
Method: protein binding microarray
Form: double-stranded DNA, one strand shown
Medium: in vitro
Tested at: not given
Notes: 8-mer, flanks averaged, mean of 2 arrays, mostly near background
Reference: not given
Reading: higher = stronger binding
Endpoint: E-score
Construct (chain): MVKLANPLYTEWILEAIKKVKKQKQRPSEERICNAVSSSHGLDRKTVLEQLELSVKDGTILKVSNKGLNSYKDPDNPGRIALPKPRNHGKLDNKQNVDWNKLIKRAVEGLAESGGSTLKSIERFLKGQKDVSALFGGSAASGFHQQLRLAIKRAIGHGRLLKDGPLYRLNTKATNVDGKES
Sequence = CTTTCGGC; result = -0.0167
Sequence = CCTCAAAG; result = -0.183
Sequence = CCCCAATA; result = -0.212
Sequence = GCGGCAAA; result = 0.3
Sequence = CCTCCCTC; result = -0.201
Sequence = GGAAGTCA; result = 0.077
Sequence = ACCGATCT; result = 0.0526
Sequence = CACCTGAA; result = -0.0653
Sequence = CCCTATCC; result = -0.222
Sequence = CGCATACG; result = 0.274
Sequence = AGGGCAGG; result = -0.107
Sequence = CCTAAAAA; result = -0.129
Sequence = AGAAGCTA; result = -0.081
Sequence = GATCCAAC; result = -0.0216
Sequence = GGGCCGCA; result = 0.188
Sequence = CAATGCCG; result = 0.307
Sequence = TCTGTCCA; result = -0.0571
Sequence = AAAAGGCT; result = -0.143
Sequence = TAACAGGA; result = -0.137
Sequence = CATCACTC; result = -0.153
Sequence = TTCGCCAA; result = 0.0184
Sequence = CATCGATA; result = 0.0647
Sequence = CGGAGACC; result = 0.225
Sequence = ACTCATAC; result = -0.054
Sequence = AACACTAC; result = -0.0244

Sample 4
Target: RNA binding protein fox-1 homolog 2, RRM domain, GST-SBP tag (RBFOX2, Homo sapiens, UniProt O43251-10, residues 100-194)
Method: RNA Bind-n-Seq
Form: RNA
Medium: in vitro
Tested at: 365 nM
Notes: natural RNA segment, single round, ends assumed
Reference: no-protein control
Reading: higher = stronger binding
Endpoint: RBNS enrichment (R)
Residues (chain): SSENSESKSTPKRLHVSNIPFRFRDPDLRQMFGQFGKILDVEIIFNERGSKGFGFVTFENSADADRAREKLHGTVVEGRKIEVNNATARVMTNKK
Sequence = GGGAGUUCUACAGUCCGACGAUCCCACUCUCUGUGGGGUCCUGCGUACCUACAGGGUGGCCUGAAAACAGACUCCACACGUGGAAACAAGACUGGGUUUCUCAGCUUCCGUGUCAAGUCAGCCAGAGGAAAGAUGGAAUUCUCGGGUGCCAA; result = 0.297
Sequence = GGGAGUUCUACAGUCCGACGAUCACCCCAGGGGCUGGCUUUUUUAAAACUGGUUUUAUUUUAAUUUUUAUUAUAUUUUCAGUUUUUCCAUAAAGGAGCCAAUUCCAACUCUGUACCUGGUCUCUGCCCUUGCUUGGAAUUCUCGGGUGCCAA; result = 0.593
Sequence = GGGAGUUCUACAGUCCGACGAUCUGUCAACUGUGUGGCUUGGAAUCCCAAGGAGCCAGGGCUCCUGGCCUCUUGUAGUGAUGAUGGGGAGGUAGCCUUCUGGGAGUAUCACCAGCCUGCAGGUCUCUGAGCUAUGGAAUUCUCGGGUGCCAA; result = 0.597
Sequence = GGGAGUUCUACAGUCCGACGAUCCAUUUAGGUGAUGGUGUUUGAUUCAGAGAUGGCUGAAUUUCUAUUCUUAGCUUAUUGUGACUGUUUCAGAUCUAGUUUGGGAACAGAUUAGAGGCCAUUGUCUUCUGUCCUGGAAUUCUCGGGUGCCAA; result = 0.311
Sequence = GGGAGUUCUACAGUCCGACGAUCAUCCAUUUUGUGGAUUUUAUGUGUUUGUGGCUUAAUAAUCAUAGUAACAACAAUAAUACCUUUUUCUCCAUUUUGCUUGCAGGAAACAUACCUUAAGUUUUUUUUGUUUUUGGAAUUCUCGGGUGCCAA; result = 2.74
Sequence = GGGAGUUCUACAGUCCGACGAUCAGGGCUGAAAGUACAACGGUUCUUGGUUGGCUUUGCCUCGUGUUUAUAAAACUAGCUACUAUUCUUCAGGUAAAAUACCGAUGUUGUGGAAAAGCCAACCCCGUGGCUGCUGGAAUUCUCGGGUGCCAA; result = 0.535
Sequence = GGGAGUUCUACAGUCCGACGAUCUUUCAGUUUGCCUUUUAUGUAAAUUUUUUACGUAGCUAUUUUUAUACACUGUAAGCUUUGUUCUGGGAGUGGCUGUUAAUUGGAUGUAUAAUGUAACGUUUUAUUUCAAUUGGAAUUCUCGGGUGCCAA; result = 0.612
Sequence = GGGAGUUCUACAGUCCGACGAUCCUAGCAUGUGAACCUGGUCCUAGUUGGAAACUCACCCAGCCUACCUUAGUACUAGUGUUUCCUACUUGAUCUCCCAUGCCUGUGGAGACUAAGCCCCCACUACCCCAGAGUGGAAUUCUCGGGUGCCAA; result = 4.33

Some of these lines once more (sample 3):
Sequence = CATCACTC; result = -0.153
Sequence = CCTCCCTC; result = -0.201
Sequence = CCCTATCC; result = -0.222
Sequence = AGGGCAGG; result = -0.107
